Experimental data gathered from unrelated publications.
Each line is one published result; not all experiments were run side by side. Values joined by “and” are separate records of one study, mostly repeats; a detail may differ. ± gives the spread as reported.

Clc1ccc(-c2cc(Cl)c(Cl)cc2Cl)c(Cl)c1  literature range factor (polyethylene-water partitioning; PCB compilation; reference: maximum over minimum K): 3
O[C@H]1CCCN[C@@H]1CCCn1cnc2c(Cl)c(Cl)ccc21  median Cmax (healthy CYP2D6 intermediate metabolizers, plasma; oral, 150 mg single dose): 259 ng/mL
CC[C@H](C)[C@H](NC(=O)[C@H](Cc1ccccc1)NC(=O)[C@H](CCC(=O)O)NC(=O)[C@H](CCCNC(=N)N)NC(=O)[C@H](C)NC(=O)[C@H](C)NC(=O)[C@H](CCC(N)=O)NC(=O)[C@H](CCC(=O)O)NC(=O)[C@H](CCC(=O)O)NC(=O)[C@H](CC(C)C)NC(=O)[C@H](Cc1ccc(O)cc1)NC(=O)[C@H](CO)NC(=O)[C@H](CO)NC(=O)[C@@H](NC(=O)[C@H](CC(=O)O)NC(=O)[C@H](CO)NC(=O)[C@@H](NC(=O)[C@H](Cc1ccccc1)NC(=O)[C@@H](NC(=O)CNC(=O)[C@H](CCC(=O)O)NC(=O)[C@H](C)NC(=O)CCc1cnc[nH]1)[C@@H](C)O)[C@@H](C)O)C(C)C)C(=O)N[C@@H](C)C(=O)N[C@@H](Cc1c[nH]c2ccccc12)C(=O)N[C@@H](CC(C)C)C(=O)N[C@H](C(=O)N[C@@H](CCCNC(=N)N)C(=O)NCC(=O)N[C@@H](CCCNC(=N)N)C(=O)N[C@@H](CCCCNC(=O)COCCOCCNC(=O)COCCOCCNC(=O)CC[C@H](NC(=O)CCCCCCCCCCCCCCCCC(=O)O)C(=O)O)C(=O)NCC(=O)NCC(=O)N[C@@H](CO)C(=O)N[C@@H](CCCCNC(=O)[C@H](CCCCNc1c(NCCCCCN(O)C(=O)CCC(=O)NCCCCCN(O)C(=O)CCC(=O)NCCCCCN(O)C(C)=O)c(=O)c1=O)Nc1c(NCCCCCN(O)C(=O)CCC(=O)NCCCCCN(O)C(=O)CCC(=O)NCCCCCN(O)C(C)=O)c(=O)c1=O)C(=O)O)C(C)C [zirconium-89 labelled]  tissue uptake (ex vivo gamma counting; male Sprague-Dawley rats, pancreas; intravenous, 1 nmol, 24 h): 0.287 %ID/g
COc1cc2c(Oc3ccc4[nH]c(C)cc4c3F)ccnc2cc1OCC1(N)CC1  Diarrhea incidence (paediatric recurrent refractory sarcoma; 8 mg): 0%
Clc1ccc(-c2ccc(Cl)cc2Cl)cc1  log K(PDMS-water) (fresh water; 20 °C, S30-1 sampler, 30 µm): 5.23 ± 0.05
NCCCS(=O)(=O)O  MRT(0-inf) (human, plasma; oral, 265 mg twice daily, steady state week 65): 5.2 h
NCCCC[C@@H]1NC(=O)[C@@H](Cc2c[nH]c3ccccc23)NC(=O)[C@H](c2ccccc2)NC(=O)[C@@H]2C[C@@H](OC(=O)NCCN)CN2C(=O)[C@H](Cc2ccccc2)NC(=O)[C@H](Cc2ccc(OCc3ccccc3)cc2)NC1=O  subjects with adverse event Diarrhoea (healthy human volunteers; 600 µg twice daily): 56%
CCC[C@@](N)(CO)CCc1ccc(OCCCCCC(C)C)cc1  half-life (male hound dog, plasma; oral, 20 mg/kg, capsule, fasted, median): 26.7 h
CN1CCN(c2ccc(Nc3nccc(-c4ccncc4)n3)cc2C(F)(F)F)CC1  toxicity (zebrafish embryos; 25 µM, 5 days): 0%
CNC(=O)CC1C(=O)N(C2CCN(C3CCC(C(C)C)CC3)CC2)c2ccccc21 (stereo not shown)  persistence of sedation (conscious Sprague-Dawley rat; intravenous bolus, 100 nmol/kg): ~30 min
Clc1ccc(Cl)c(-c2cc(Cl)ccc2Cl)c1  relative liver weight (Sprague Dawley rat; intraperitoneal, 100 mg/kg): 0.0417 g/g body weight
COc1ccc(-c2c(-c3ccc(C#N)c(F)c3)nc(N3CCC(N)CC3)n(C)c2=O)cc1F  any-grade TRAE incidence (measured: ≥1 event; human patients; oral, dose not given, dose escalation): 68%
O=C(Nc1ccccc1)C1CCN(C(=O)Oc2cccnc2)CC1  TEAE incidence (measured: abdominal discomfort; healthy female humans; concentration not given, safety set, all doses pooled): 8%
CCN1CCN(Cc2ccc(Nc3ncc(F)c(-c4cc(F)c5nc6n(c5c4)[C@H](C)CCC6)n3)nc2)CC1  Nausea incidence, grade ≥3 (advanced solid tumour patients; dose not given, Phase Ia monotherapy): 0%
N.N.[Cl][Pt][Cl]  body weight (nude mouse MCF7 xenograft; 5 mg/kg, day 8): 14.5 ± 1.25 g
COc1ccc([C@@H](O)c2cc(-c3ncnc4cc(N5CCOCC5)ccc34)c(F)cc2Cl)nn1  colitis incidence (patients, advanced solid tumours; oral, 200 mg twice daily, treatment-emergent, with: avelumab): 10%
COc1ncnn2ccc(-c3cnc4nc(C)n(Cc5nnc([C@@H](C)F)o5)c4c3)c12  incidence of Fatigue (human patients; oral, dose not given, grade 1 adverse drug reaction): 7.1%
CC(=O)c1c(C)c2cnc(Nc3ccc(N4CCNCC4)cn3)nc2n(C2CCCC2)c1=O  MTD (C57BL/6 mouse pups; intraperitoneal): 10 mg/kg/day
COc1cccc(Oc2ccccc2NC(=O)CNC(=O)c2cccc3ccccc23)c1  serum sodium (esterase-deficient SCID mice, male; oral, 15 mg/kg/day, 14 days, toxicity study): 156 mmol/L and 160 mmol/L
COc1cc2c(cc1OC)CN(CCc1ccc(NC(=O)c3cccc4c(=O)c5cccc(OC)c5[nH]c34)cc1)CC2  AUC(0-t) (CD-1 mouse, male, plasma; intraperitoneal, 3 mg/kg): 2350 ng·h/mL
CC1(C)[C@H](C(=O)O[C@H](C#N)c2cccc(Oc3ccccc3)c2)[C@@H]1C=C(Br)Br  CLint (pooled human liver cytosol): 1.09 mL/min/mg
CC(C)C[C@@H]1NC(=O)CNC(=O)[C@H](CC(N)=O)NC(=O)[C@H](CCCNC(=N)N)NC(=O)[C@H]([C@@H](C)O)NC(=O)[C@@H]2CSSC[C@@H]3NC(=O)[C@H]([C@@H](C)O)NC(=O)CNC(=O)CNC(=O)[C@H](C(C)C)NC(=O)[C@@H]4CSSC[C@H](NC(=O)[C@H]([C@@H](C)O)NC(=O)[C@H](CSSC[C@H](NC(=O)[C@H](C(C)C)NC(=O)[C@@H]5CCCN5C1=O)C(=O)NCC(=O)N[C@@H](CCC(=O)O)C(=O)N[C@@H]([C@@H](C)O)C(=O)N4)NC(=O)CNC(=O)[C@@H]1CCCN1C(=O)[C@H](CCCCN)NC(=O)[C@H](CC(N)=O)NC3=O)C(=O)N[C@@H](CO)C(=O)N[C@@H](Cc1c[nH]c3ccccc13)C(=O)N1CCC[C@H]1C(=O)N[C@@H](C(C)C)C(=O)N2  remaining peptide (HPLC; ammonium bicarbonate 0.1 M; 180 µM, 14 days, pH 9.0, 37 °C, deamidation stability): 57.9 ± 2%
CN[C@H]1CC[C@@H](c2ccc(Cl)c(Cl)c2)c2ccccc21  AUC(0-t) (CD-1 mouse, male, plasma; intraperitoneal, 1 mg/kg): 29.2 ng·h/mL
C[C@@H](NC(=O)N1C(=O)[C@H](Cc2ccnc(N)c2)[C@H]1C(=O)O)C1CCCCC1  incidence of urine erythrocyte positive (healthy adult Chinese volunteers; continuous intravenous infusion, 1.5 mg/kg/h, 5-day infusion, CTCAE 5.0 grading): 0%
CC(C)N(CCc1c[nH]c2cccc(OC(=O)CCCC(=O)O)c12)C(C)C.Cl  half-life (male beagle dog, plasma; subcutaneous, 1 mg/kg): 1.3 h
CO[C@H]1C[C@@H]2CC[C@@H](C)[C@@](O)(O2)C(=O)C(=O)N2CCCC[C@H]2C(=O)O[C@H]([C@H](C)C[C@@H]2CC[C@@H](OC(=O)NCCOCCOCCOCCOCCOCCOCCOCCOCCC(=O)N3CCc4cc(Cn5nc(-c6ccc7oc(N)nc7c6)c6c(N)ncnc65)ccc4C3)[C@H](OC)C2)C[C@@H](O)[C@H](C)/C=C(\C)[C@@H](O)[C@@H](OC)C(=O)[C@H](C)C[C@H](C)/C=C/C=C/C=C/1C  headache incidence (patients with advanced solid tumours; intravenous, 16 mg weekly, any grade): 50%
O=C(O)CCC(CP(=O)(O)O)C(=O)O (stereo not shown)  measured concentration (rat plasma; 4 µg/mL, freeze-thaw cycle 3 at -80 °C): 3.89 ± 0.19 µg/mL
COc1ccnc(C(=O)N[C@H]2COC(=O)[C@H](Cc3ccccc3)[C@@H](OC(=O)C(C)C)[C@H](C)OC2=O)c1OCOC(=O)C(C)C  DT50 (aerobic dark soil incubation; sandy loam soil; 20 °C, modelling endpoint): 4.58 days
Clc1cc(Cl)cc(-c2ccccc2)c1  literature range factor (PDMS-water partitioning; PCB compilation; reference: maximum over minimum K): 1.3
CN1CC[C@@H](c2c(O)cc(O)c3c(=O)cc(-c4ccc(C(F)(F)F)cc4Cl)oc23)[C@@H]1CO  adverse event incidence (measured: Anorexia; relapsed or refractory haematological malignancies; oral, dose not given, all grades): 17.5%
O=C(O)CCCOc1ccc(F)cc1-c1cc(-c2ccccc2C(F)(F)F)n(-c2ccccc2)n1  organ weight (female Crl:CD(SD) rats, spleen; intravenous, 25 µg/kg, 1 d): 0.46 ± 0.06 g
NC(=O)[C@H]1CCN(c2ncnc(N)c2F)C[C@@H]1N1CCC[C@@H](Nc2cc(Cl)cc(C(F)(F)F)c2)C1=O  any grade ≥3 adverse event (B-cell malignancy patients; oral, 410 mg twice daily, dose): 0%
O=C(Nc1ccccc1)C1CCN(C(=O)Oc2cccnc2)CC1  adverse event Erythema (healthy women; oral, 20 mg, 7 days): 7.1%
CCOc1cc(Oc2ccc(C(F)(F)F)cc2Cl)ccc1[N+](=O)[O-]  final body weight (rat male; 31.25 mg/kg, 8 days): 146 ± 6.93 g
CCC(CC)(NC(=O)c1ccc(C2CC2)c(Cc2ccc(F)cc2)n1)C(=O)NCCOCCOCCNC(=O)c1ccc2c(c1)C1(OC2=O)c2ccc(N(C)C)cc2[Si](C)(C)c2cc(N(C)C)ccc21  fluorescence quantum yield (PBS; 100 nM, pH 7.4, 0.1% DMSO): 30.3%
c1cc2ccc3ccc4ccc5cccc6c(c1)c2c3c4c56  log K(PDMS-water) (fresh water; 12 (unit not given), 20 °C, S100 sampler, 100 µm): 5.56 ± 0.05
C[C@@H]1OC(=O)NN=C1c1ccc(-c2ccc(F)cc2)c(C(F)(F)F)c1  patients with TEAE (phase I trial, measured: alkaline phosphatase increased; human patients; 5 mg load, 0.25 mg daily, worst grade 1): 0%
O=C1Nc2cc3[nH]nc(-c4ccncc4)c3cc2CN1Cc1ccccc1  patients with diarrhoea (CTCAE v4.03; advanced solid tumour patients; intravenous, 4.8 mg/kg, schedules 1/2): 0%
C[C@]1(O)C[C@@](N)(c2ccc(-c3nc4n(c3-c3ccccc3)COc3ccncc3-4)cc2)C1  patients with Rash TEAE (human, advanced or metastatic solid tumours; 16 mg once daily, dose-response cohort): 0%
C[C@]1(CO)Cc2ncn(-c3ccc(C#N)c(Cl)c3)c2C(=O)O1  drug-related Somnolence incidence (healthy humans; concentration not given, food-effect part total): 0%
